Experimental data of several laboratories.
Lines come from different studies, so protocols differ. Numbers after ± are the reported error.

Structure (SMILES) = CN(Cc1ccc(F)cc1)Cc1cc(=O)oc2cc(O)ccc12; system = HepG2 cell medium; setting = 0.5 mM, 120 min; measurement = remaining intact compound; result = > 99%
Structure (SMILES) = N#Cc1cnc2cc(OCC3CCNCC3)c(F)cc2c1Nc1cc(F)c(OCc2cccc(Cl)n2)cc1Cl; system = female CD-1 mouse, plasma; setting = intravenous, 5 mg/kg; measurement = MRT; result = 4 h
Structure (SMILES) = CC(C)c1cnc(-c2cc(Cl)ccc2F)cc1Nc1ccncc1C(=O)NC(CO)CO; system = patients, phase I monotherapy; setting = oral, dose not given, grade 2; measurement = patients with anaemia; result = 9.5%
Structure (SMILES) = CN(C)c1cc(CN2CCCCC2)c(O)c2c1C[C@H]1C[C@H]3[C@H](N(C)C)C(O)=C(C(N)=O)C(=O)[C@@]3(O)C(O)=C1C2=O; system = cynomolgus monkey; setting = oral, 5 mg/kg; scale = reference: tigecycline; measurement = oral plasma exposure; result = 3 fold
Structure (SMILES) = CONC(=O)/C=C/c1cccc(S(=O)(=O)Nc2ccccc2)c1; system = human, mild liver dysfunction, plasma; setting = intravenous, 400 mg/m^2 belinostat, cycle 1 day -7, geometric mean; scale = reference: metabolite over belinostat; measurement = Cmax metabolic ratio; result = 0.112
Structure (SMILES) = O=C(CCc1ccc(CNC(C(=O)OC2CCCC2)C2CCCCC2)cn1)NO (stereo not drawn); system = human; setting = oral, 50 mg, single dose, geometric mean; measurement = Vz/F; result = 140 L
Structure (SMILES) = N=C(N)NCCC[C@@H]1NC(=O)[C@H](Cc2c[nH]c3ccccc23)NC(=O)[C@@H](CC2CCCCC2)NC(=O)[C@@H]2CCCN2C(=O)[C@@H](NC(=O)CCc2ccccc2)CCCNC1=O; system = C57BL/6J mouse, plasma brain; setting = intravenous, 1 mg/kg single dose; measurement = MRT(0-inf); result = 3.88 h
Structure (SMILES) = COC(=O)C(c1ccccc1Cl)N1CCC(SCC(=O)c2cccc(OC)c2)C(=CC(=O)O)C1 (stereo not drawn); system = acetonitrile; setting = -20 °C; measurement = stock solution stability time; result = ≥ 2 months
Structure (SMILES) = CC(=O)N[C@H](CCNC(=O)c1cc(NC(=O)c2cc(NC(=O)c3cc(NC(=O)c4nccn4C)cn3C)cn2C)cn1C)C(=O)Nc1cn(C)c(C(=O)Nc2cc(C(=O)Nc3cc(C(=O)Nc4cc(C(=O)NCCCN(C)CCCN[14C](=O)c5cccc([14C](=O)O)c5)n(C)c4)n(C)c3)n(C)c2)n1; system = NSG male mice, LNCaP xenograft, LNCaP tumour; setting = intraperitoneal, 20 nmol per animal, 24 h; scale = reference: LNCaP tumour over U-251 tumour; measurement = tissue concentration ratio; result = 2.3 fold
Structure (SMILES) = NC(=O)N/N=C/c1ccccn1; test = cyclic voltammetry; system = anhydrous DMF; setting = Cu2+ complex, glassy carbon electrode; measurement = peak potential separation; result = 0.135 mV
Structure (SMILES) = CCCC[C@@H]1NC(=O)[C@@H](NC(=O)[C@H](CCC(=O)O)NC(=O)CNC(=O)CN2CCN(CC(=O)O)CCN(CC(=O)O)CCN(CC(=O)O)CC2)CCCCNC(=O)C[C@@H](C(N)=O)NC(=O)[C@H](C(C)C)NC(=O)[C@@H]2CCCN2C(=O)[C@H](CCCNC(=N)N)NC(=O)CNC(=O)[C@H](Cc2c[nH]c3ccccc23)NC(=O)[C@H](CCCNC(=N)N)NC(=O)[C@@H](Cc2ccccc2)NC(=O)[C@H](Cc2c[nH]cn2)NC(=O)[C@H](CCC(=O)O)NC1=O [gallium-67 labelled]; system = C57 mice, B16/F1 flank melanoma, tumour; setting = intravenous, 0.037 MBq, 0.5 h; measurement = tumour uptake; result = 8.59 ± 1.37 %ID/g
Structure (SMILES) = CCN(CC)CC#CCNc1ccnc2cc(Cl)ccc12; system = mouse hepatocytes; setting = 10 µM, 30 min; measurement = parent compound remaining; result = < 15%
Structure (SMILES) = C=CC(=O)Nc1cc(Nc2nccc(-c3cn(C)c4ccccc34)n2)c(OCC(F)(F)F)nc1NCCN(C)C; test = LC-MS; system = human liver microsomes; setting = 3 µM, 60 min, together with: ticlopidine 24 µM; scale = reference: no inhibitor; measurement = remaining parent compound; result = 58%
Structure (SMILES) = CN(C)C(CNC(=O)Nc1cc(C(F)(F)F)ccc1N1CCOCC1)c1ccncc1 (stereo not drawn); system = mouse, C57BL/6J, urine; setting = subcutaneous minipump infusion, 25 mg/kg/day, 4 days; measurement = urine concentration; result = 301 ± 55.3 ng/mL
Structure (SMILES) = CC[C@H](C)[C@H](NC(=O)[C@@H]1CCCN1C(=O)CNC(=O)[C@H](Cc1ccccc1)NC(=O)[C@H](CC(N)=O)NC(=O)[C@H](CC(N)=O)NC(=O)[C@H](CO)NC(=O)[C@H](CO)NC(=O)[C@H](Cc1c[nH]cn1)NC(=O)[C@@H](NC(=O)[C@H](CC(C)C)NC(=O)[C@H](Cc1ccccc1)NC(=O)[C@H](CC(N)=O)NC(=O)[C@H](C)NC(=O)[C@H](CC(C)C)NC(=O)[C@H](CCCNC(=N)N)NC(=O)[C@H](CCC(N)=O)NC(=O)[C@@H](NC(=O)[C@H](C)NC(=O)[C@@H]1CSSC[C@H](NC(=O)[C@@H](N)CCCCN)C(=O)N[C@@H](CC(N)=O)C(=O)N[C@@H]([C@@H](C)O)C(=O)N[C@@H](C)C(=O)N[C@@H]([C@@H](C)O)C(=O)N1)[C@@H](C)O)C(C)C)C(=O)N[C@@H](CC(C)C)C(=O)N1CCC[C@H]1C(=O)N1CCC[C@H]1C(=O)N[C@H](C(=O)N[C@@H](CC(N)=O)C(=O)N[C@H](C(=O)NCC(=O)N[C@@H](CO)C(=O)N[C@@H](CC(N)=O)C(=O)N[C@H](C(=O)N[C@@H](Cc1ccc(O)cc1)C(N)=O)[C@@H](C)O)C(C)C)[C@@H](C)O; system = PBS; setting = 500 µM, 24 h, pH 7.4, together with: equimolar insulin; scale = reference: time zero; measurement = loss from soluble fraction; result = > 37%
Structure (SMILES) = CCCC(CCC)NC(=O)c1ccc(OC2OC(C(=O)O)C(O)C(O)C2O)c(OC)c1 (stereo not drawn); system = female Sprague-Dawley rat, plasma; setting = oral, 200 mg/kg of parent drug; measurement = Tmax; result = 8 h
Structure (SMILES) = NCCn1c2ccc([N+](=O)[O-])cc2c(=O)n1Cc1ccccc1; test = resazurin; system = peritoneal macrophages, BALB/c mice; setting = 48 h, 10% FBS; measurement = CC50; result = 140 ± 16.2 µM
Structure (SMILES) = Cc1ccc(OCC(=O)O)cc1; system = Sprague-Dawley rat, female, plasma; setting = oral gavage, 100 mg/kg of parent drug; scale = reference: compound over parent drug; measurement = AUC(0-last) ratio; result = 473
Structure (SMILES) = CCCCCCCCCCCCCCCC(=O)N[C@@H](CCCCN)C(=O)N[C@@H](CCCCN)C(=O)N[C@@H](CO)C(=O)N[C@@H](CCCNC(=N)N)C(=O)N[C@@H](C)C(=O)N[C@@H](CC(C)C)C(=O)N[C@@H](Cc1ccccc1)C(N)=O; system = cynomolgus monkey, female; setting = 3 mg/kg, day 1; measurement = prothrombin time; result = 11.8 ± 0.5 s
Structure (SMILES) = CC(C)(Sc1cc[n+]([O-])cc1-c1ccc(C#N)c2ccccc12)C(=O)OC1OC(C(=O)O)C(O)C(O)C1O (stereo not drawn); system = plasma; setting = oral, 15 mg, mild renal impairment; scale = reference: impaired over normal renal function; measurement = AUC(0-inf) ratio; result = 136%
Structure (SMILES) = Cc1cc(O)cc(O)c1C(=O)c1c2c3c(c(O)cc(C)c3oc1=O)C(=O)c1c(O)cc(O)cc1-2; system = KM mouse, male, plasma; setting = intraperitoneal, 30 mg/kg; measurement = elimination half-life; result = 0.793 h
Structure (SMILES) = Cn1c(=O)oc2ccc(-c3ccc(CC(C#N)NC(=O)C4CNCCCO4)c(F)c3)cc21 (stereo not drawn); test = item: macule; system = human; setting = 80 mg single dose, fasted; measurement = subjects with TEAE; result = 16.7%
Structure (SMILES) = CCCC1OC2CC3C4CCC5=CC(=O)C=CC5(C)C4C(O)CC3(C)C2(C(=O)COC(=O)CN(CC)CC)O1 (stereo not drawn); system = human plasma; setting = 200 µg/mL, 12 h; measurement = hydrolysed conjugate; result = 85.7%
Structure (SMILES) = CN1CCC[C@]1(C)/C=C/S(=O)(=O)NC(=O)Nc1c2c(cc3c1CCC3)CCC2; system = human, plasma; setting = oral, 25 to 400 mg, single dose; measurement = elimination half-life; result = 6 to 7 h
Structure (SMILES) = CC[C@H](C)[C@@H]1NC(=O)[C@H](Cc2ccccc2)NC(=O)[C@@H](NC(=O)[C@H](CCCNC(=N)N)NC(=O)[C@H](Cc2ccccc2)NC(=O)[C@H](Cc2ccccc2)NC(=O)[C@H](CCCCN)NC(=O)[C@H](CO)NC(=O)[C@H](CC(C)C)NC(=O)[C@H](CCCNC(=N)N)NC(=O)[C@H](CCSC)NC(=O)[C@H](C)N)CCCCNC(=O)NCCC[C@@H](C(=O)N[C@@H](CCCNC(=N)N)C(=O)N[C@@H](CCCCN)C(=O)N[C@@H](CCCCN)C(=O)O)NC(=O)[C@H](CC(C)C)NC1=O; test = circular dichroism; system = 20% TFE in PBS; setting = 200 µM, pH 7.4, 25 °C; measurement = helicity; result = 12.1%
Structure (SMILES) = CCCC[C@H](NC(=O)CNC(=O)CNC(=O)CN1CCN(CC(=O)O)CCN(CC(=O)O)CC1)C(=O)N[C@H]1CC(=O)NCCCC[C@@H](C(N)=O)NC(=O)[C@H](Cc2c[nH]c3ccccc23)NC(=O)[C@H](CCCNC(=N)N)NC(=O)[C@@H](Cc2ccccc2)NC(=O)[C@H](Cc2c[nH]cn2)NC1=O [copper-64 labelled]; system = female C57 mouse, B16/F1 melanoma; setting = intravenous, 0.037 MBq, 0.5 h; scale = reference: tumour over liver; measurement = uptake ratio; result = 11.4
Structure (SMILES) = COc1cccc(NCc2cn(-c3ccccc3)nc2-c2ccc(OCc3ccccc3)cc2)c1; system = rat, gastric mucosa; setting = oral, 60 mg/kg, 17 h; scale = reference: control score subtracted; measurement = ulcer severity index; result = 0.76 ± 0.36

Excerpt of the above:
Structure (SMILES) = CCCC[C@@H]1NC(=O)[C@@H](NC(=O)[C@H](CCC(=O)O)NC(=O)CNC(=O)CN2CCN(CC(=O)O)CCN(CC(=O)O)CCN(CC(=O)O)CC2)CCCCNC(=O)C[C@@H](C(N)=O)NC(=O)[C@H](C(C)C)NC(=O)[C@@H]2CCCN2C(=O)[C@H](CCCNC(=N)N)NC(=O)CNC(=O)[C@H](Cc2c[nH]c3ccccc23)NC(=O)[C@H](CCCNC(=N)N)NC(=O)[C@@H](Cc2ccccc2)NC(=O)[C@H](Cc2c[nH]cn2)NC(=O)[C@H](CCC(=O)O)NC1=O [gallium-67 labelled]; system = C57 mice, B16/F1 flank melanoma, tumour; setting = intravenous, 0.037 MBq, 0.5 h; measurement = tumour uptake; result = 8.59 ± 1.37 %ID/g
Structure (SMILES) = CCN(CC)CC#CCNc1ccnc2cc(Cl)ccc12; system = mouse hepatocytes; setting = 10 µM, 30 min; measurement = parent compound remaining; result = < 15%
Structure (SMILES) = C=CC(=O)Nc1cc(Nc2nccc(-c3cn(C)c4ccccc34)n2)c(OCC(F)(F)F)nc1NCCN(C)C; test = LC-MS; system = human liver microsomes; setting = 3 µM, 60 min, together with: ticlopidine 24 µM; scale = reference: no inhibitor; measurement = remaining parent compound; result = 58%
Structure (SMILES) = CN(C)C(CNC(=O)Nc1cc(C(F)(F)F)ccc1N1CCOCC1)c1ccncc1 (stereo not drawn); system = mouse, C57BL/6J, urine; setting = subcutaneous minipump infusion, 25 mg/kg/day, 4 days; measurement = urine concentration; result = 301 ± 55.3 ng/mL
